Measurements of several laboratories.
Each line is one published result; not all experiments were run side by side.
Observed: metabolic stability
Species: human

`C[N+]1(CC(=O)OC2CCCCCCCCCCC2)CCCCC1` has a half-life of 0.0567 h (liver microsomes).
`CCC(=O)N1CCC=C(c2cc3c(Nc4cc5ncsc5cc4F)ncnc3s2)C1` has a half-life of greater than 2 h (liver microsomes).
With `C=CC(=O)Nc1cccc(Cn2ncc3cnc(Nc4cnn(CCOC)c4)nc32)c1` the half-life was 1 h (hepatocytes).
`CC(C)NC(=O)N1CCC=C(c2cc3c(Nc4cc5ncsc5cc4F)ncnc3s2)C1` has a half-life of greater than 2 h (liver microsomes).
`Cc1nc(-c2ccc(NC(=O)c3cccs3)cc2Cl)no1` has a half-life of 0.64 h (liver microsomes).
For `O=C(NC1CCCC1)N1CCC=C(c2cc3c(Nc4cc5ncsc5cc4F)ncnc3s2)C1`, the half-life was greater than 2 h (liver microsomes).
With `CCN(c1nc(N[C@H](CC(N)=O)C(=O)NC)nc(N2CCN(c3ccccc3C#N)CC2)n1)C1CCCCC1` the half-life was 2.5 h (liver microsomes).
`CCC(CC)CN(C[C@@H](O)[C@H](Cc1ccccc1)NC(=O)O[C@H]1CO[C@H]2OCC[C@H]21)S(=O)(=O)c1ccc2ncsc2c1` has a half-life of greater than 3 h (liver microsomes).
`CNC(=O)C1CCN(c2cc(C)ccc2NC(=O)c2ccc(-c3cc(O)ccc3C)c(C)c2)CC1` gave a half-life of 1.9 h (liver microsomes; 2 µM).
`COc1cc(F)cc(-c2nc3ccc(C(=O)NCCCN(C)C)cc3n2C2CCC2)c1` gave a half-life of 3.23 h (liver microsomes).
`CC12CC3CC(C)(C1)CC(NC(=O)NC1CCC(Oc4ccc(C(=O)O)cc4)CC1)(C3)C2` (stereo not drawn) gave a half-life of 0.133 h (liver microsomes).
`O=C1C2=C(CCN(Cc3ccccc3)C2)N2CCN=C2N1Cc1ccc(C(F)(F)F)cc1` has a half-life of 0.171 h (liver microsomes).
`Fc1cc2scnc2cc1Nc1ncnc2sc(C3=CCCNC3)cc12` gave a half-life of greater than 2 h (liver microsomes; 1 µM).
`[2H]C(Cc1c[nH]c2ccccc12)(Nc1ccccc1)C(=O)O` (stereo not drawn) gave a half-life of 5.91 h (liver microsomes; 1.5 µM, pH 7.4).
`O=C(NC1CC1)N1CCC=C(c2cc3c(Nc4cc5ncsc5cc4F)ncnc3s2)C1` gave a half-life of greater than 2 h (liver microsomes).
With `COc1cc(-c2nc3ccc(C(=O)NCCCN4CCN(c5ccccc5)C(=O)C4)cc3n2C2CCC2)cc(OC)c1OC` the half-life was 0.15 h (liver microsomes).
For `C=CCNC(=O)NC1CC=C(c2cc3c(Nc4cc5ncsc5cc4F)ncnc3s2)CC1` (racemic), the half-life was greater than 2 h (liver microsomes).
The half-life of `O=C1N[C@H](CO)Cc2cccc(c2)CCCOc2cccc1c2` is reported as 0.517 h (liver microsomes; 1 µM).

Repeated from above:
`O=C1C2=C(CCN(Cc3ccccc3)C2)N2CCN=C2N1Cc1ccc(C(F)(F)F)cc1` has a half-life of 0.171 h (liver microsomes).
`CNC(=O)C1CCN(c2cc(C)ccc2NC(=O)c2ccc(-c3cc(O)ccc3C)c(C)c2)CC1` gave a half-life of 1.9 h (liver microsomes; 2 µM).
